Published values collected from several papers.
Each line is one published result; not all experiments were run side by side. Numbers after ± are the reported error.

C[C@H](N)C(=O)N[C@@H](C)C(=O)O — IC50 (PepTSt Streptococcus thermophilus wild type; peptide uptake, competitor, proteoliposome uptake): 30 ± 10 µM
O=C(O)C1OC(OC2C(COS(=O)(=O)O)OC(OC3C(C(=O)O)OC(OC4C(COS(=O)(=O)O)OC(OC5C(C(=O)O)OC(OC6C(COS(=O)(=O)O)OC(OC7C(C(=O)O)OC(OC8C(COS(=O)(=O)O)OC(OC9C(C(=O)O)OC(OC%10C(COS(=O)(=O)O)OC(OC%11C(C(=O)O)OC(Oc%12ccc([N+](=O)[O-])cc%12)C(O)C%11O)C(NS(=O)(=O)O)C%10O)C(OS(=O)(=O)O)C9O)C(NS(=O)(=O)O)C8O)C(OS(=O)(=O)O)C7O)C(NS(=O)(=O)O)C6O)C(OS(=O)(=O)O)C5O)C(NS(=O)(=O)O)C4O)C(OS(=O)(=O)O)C3O)C(NS(=O)(=O)O)C2OS(=O)(=O)O)C(O)C(O)C1OC1OC(COS(=O)(=O)O)C(O)C(O)C1NS(=O)(=O)O (stereo not shown) — IC50 (human factor Xa; anti-factor Xa activity, chromogenic; human plasma): 0.057 µg/mL
CC(C)C[C@@H](/C=C/S(C)(=O)=O)NC(=O)[C@H](CC(C)C)NC(=O)[C@@H](NC(=O)N[C@H](C(=O)OC(C)(C)C)C(C)C)C(C)C — IC50 (rabbit 26S proteasome beta2; trypsin-like activity; 30 min, 37 °C, added: Ac-RLR-AMC): > 30 µM
CC(C)=CCN=C(N)NCCC[C@@H](NC(=O)CCCc1ccc(O)cc1)C(=O)N[C@@H](Cc1ccccc1)C(O)CC(=O)N[C@@H](Cc1ccc(O)cc1)C(=O)O (stereo in doubt) — IC50 (calpain; enzyme activity): > 100 µM
O=Cc1c(O)ccc2ccccc12 — log2 fold change (HUVEC; RNA sequencing, item: TMIE; 75 µM, 24 h; baseline: DMSO): 3.59
CC(=O)N[C@@H](Cc1ccc(O)cc1)CN(CC(=O)N[C@@H](CCCCN)CN(CC(=O)N[C@@H](Cc1ccccc1)CN(CC(=O)N[C@H]1CCCCNc2c(F)c(F)c(c(F)c2F)S(=O)(=O)c2c(F)c(F)c(c(F)c2F)NCCCC[C@@H](CN(CC(=O)N[C@@H](C)CN(CC(N)=O)S(C)(=O)=O)S(C)(=O)=O)NC(=O)CN(S(=O)(=O)Cc2ccccc2)C[C@H](CC(C)C)NC(=O)CN(S(=O)(=O)CCN)C1)S(=O)(=O)CC(C)C)S(=O)(=O)CCN)S(C)(=O)=O — IC50 (CREB; reporter gene, inhibitor, CRE Renilla luciferase; HEK-293T; 30 min, added: forskolin 10 µM for 5 h): 32.5 ± 8.47 µM
CSCC[C@H](N)C(=O)N[C@@H](CO)C(=O)N[C@@H](CCC(N)=O)C(=O)N[C@@H](CO)C(=O)N[C@@H](CC(N)=O)C(=O)N[C@@H](CCCNC(=N)N)C(=O)N[C@@H](CCC(=O)O)C(=O)N[C@@H](CC(C)C)C(=O)N[C@H](C(=O)N[C@H](C(=O)N[C@@H](CC(=O)O)C(=O)N[C@@H](Cc1ccccc1)C(=O)N[C@@H](CC(C)C)C(=O)N[C@@H](CO)C(=O)N[C@@H](Cc1ccc(O)cc1)C(=O)N[C@@H](CCCCN)C(=O)N[C@@H](CC(C)C)C(=O)N[C@@H](CO)C(=O)N[C@@H](CCC(N)=O)C(=O)N[C@@H](CCCCN)C(=O)NCC(=O)N[C@@H](Cc1ccc(O)cc1)C(=O)N[C@@H](CO)C(=O)N[C@@H](Cc1c[nH]c2ccccc12)C(=O)O)C(C)C)C(C)C — IC50 (IP3 receptor (mouse); IP3-induced Ca2+ release, inhibitor, 45Ca2+ flux; permeabilized MEF cells; 4 min preincubation, 30 °C, added: 3 µM IP3): > 500 µM
CC(=O)N[C@@H](Cc1ccc(O)cc1)CN(CC(=O)N[C@@H](CCCCN)CN(CC(=O)N[C@@H](Cc1ccccc1)CN(CC(=O)N[C@H]1CCCCNc2c(F)c(F)c(c(F)c2F)S(=O)(=O)c2c(F)c(F)c(c(F)c2F)NCCCC[C@@H](CN(CC(=O)N[C@@H](C)CN(CC(N)=O)S(C)(=O)=O)S(C)(=O)=O)NC(=O)CN(S(=O)(=O)CC(C)C)C[C@H](Cc2ccccc2)NC(=O)CN(S(=O)(=O)CCN)C1)S(=O)(=O)c1ccc(Cl)cc1)S(=O)(=O)CCN)S(C)(=O)=O — IC50 (CREB; reporter gene, inhibitor, CRE Renilla luciferase; HEK-293T; 30 min, added: forskolin 10 µM for 5 h): 18.9 µM
Cc1cc(N2CC[C@@](C#N)(C3(C)CC3)C2=O)cc(C(=O)NCc2cc(F)cc(-c3cnn(C)c3)c2)n1 — IC50 (GABAA receptor; promiscuity panel): > 10 µM
N=C(NCCCN(CCNC(=O)NCc1ccccc1)C[C@H]1O[C@@H](n2cnc3c(N)ncnc32)[C@H](O)[C@@H]1O)Nc1cccc(Br)c1 — IC50 (type I PRMTs; enzyme activity, inhibitor, radioactive): < 0.005 µM
COc1cc2ncnc(Nc3ccc(Oc4ccccc4)cc3C)c2cc1OC — IC50 (ERK1; ATP-biotin probe binding, inhibitor, probe-labelling competition): > 10 µM
CC(=O)N[C@@H](Cc1ccc(O)cc1)CN(CC(=O)N[C@@H](CCCCN)CN(CC(=O)N[C@@H](Cc1ccccc1)CN(CC(=O)N[C@H]1CCCCNc2c(F)c(F)c(c(F)c2F)S(=O)(=O)c2c(F)c(F)c(c(F)c2F)NCCCC[C@@H](CN(CC(=O)N[C@@H](C)CN(CC(N)=O)S(C)(=O)=O)S(C)(=O)=O)NC(=O)CN(S(=O)(=O)c2ccccc2)C[C@H](Cc2ccccc2)NC(=O)CN(S(=O)(=O)CCN)C1)S(=O)(=O)CC(C)C)S(=O)(=O)CCN)S(C)(=O)=O — IC50 (CREB; reporter gene, inhibitor, CRE Renilla luciferase; HEK-293T; 30 min, added: forskolin 10 µM for 5 h): 68.9 ± 25.9 µM
COc1cc2ncnc(Nc3ccc(Oc4ccccc4)c(C)c3C)c2cc1OC — IC50 (ERK1; ATP-biotin probe binding, inhibitor, probe-labelling competition): > 10 µM
CC[C@H]1[C@@H](O)[C@@H]2[C@H](CC[C@]3(C)[C@@H]([C@H](C)CCOS(=O)(=O)[O-])CC[C@@H]23)[C@@]2(C)CC[C@@H](O)C[C@@H]12.[Na+] — NAFLD activity score (histology; ob/ob NASH mouse model, liver; oral, 3 mg/kg once daily, before treatment, baseline of 8 week study; direction not given): 6.3 ± 0.2
CSCC[C@H](N)C(=O)N[C@@H](CO)C(=O)N[C@@H](CCC(N)=O)C(=O)N[C@@H](CO)C(=O)N[C@@H](CC(N)=O)C(=O)N[C@@H](CCCNC(=N)N)C(=O)N[C@@H](CCC(=O)O)C(=O)N[C@@H](CC(C)C)C(=O)N[C@H](C(=O)N[C@H](C(=O)N[C@@H](CCCCN)C(=O)N[C@@H](Cc1ccccc1)C(=O)N[C@@H](CC(C)C)C(=O)N[C@@H](CO)C(=O)N[C@@H](Cc1ccc(O)cc1)C(=O)N[C@@H](CCCCN)C(=O)N[C@@H](CC(C)C)C(=O)N[C@@H](CO)C(=O)N[C@@H](CCC(N)=O)C(=O)N[C@@H](CCCCN)C(=O)NCC(=O)N[C@@H](Cc1ccc(O)cc1)C(=O)N[C@@H](CO)C(=O)N[C@@H](Cc1c[nH]c2ccccc12)C(=O)O)C(C)C)C(C)C — IC50 (IP3 receptor (mouse); IP3-induced Ca2+ release, inhibitor, 45Ca2+ flux; permeabilized MEF cells; 4 min preincubation, 30 °C, added: 3 µM IP3): 60 µM
CC(=O)N[C@@H](Cc1ccc(O)cc1)CN(CC(=O)N[C@@H](CCCCN)CN(CC(=O)N[C@@H](Cc1ccccc1)CN(CC(=O)N[C@H]1CCCCNc2c(F)c(F)c(c(F)c2F)S(=O)(=O)c2c(F)c(F)c(c(F)c2F)NCCCC[C@@H](CN(CC(=O)N[C@@H](C)CN(CC(N)=O)S(=O)(=O)Cc2ccccc2)S(C)(=O)=O)NC(=O)CN(S(=O)(=O)CC(C)C)C[C@H](CC(C)C)NC(=O)CN(S(=O)(=O)CCN)C1)S(=O)(=O)CC(C)C)S(=O)(=O)CCN)S(C)(=O)=O — IC50 (CREB; reporter gene, inhibitor, CRE Renilla luciferase; HEK-293T; 30 min, added: forskolin 10 µM for 5 h): 43.1 ± 19.8 µM
O=C(O)c1ccccc1-c1c2ccc(=O)cc-2oc2cc(O)ccc12 — IC50 (reconstituted human ubiquitination cascade; PCNA ubiquitination, inhibitor, AlphaScreen): > 100 µM
CC(=O)N[C@@H](Cc1ccc(O)cc1)CN(CC(=O)N[C@@H](CCCCN)CN(CC(=O)N[C@@H](Cc1ccccc1)CN(CC(=O)N[C@H]1CCCCNc2c(F)c(F)c(c(F)c2F)S(=O)(=O)c2c(F)c(F)c(c(F)c2F)NCCCC[C@@H](CN(CC(=O)N[C@@H](C)CN(CC(N)=O)S(C)(=O)=O)S(C)(=O)=O)NC(=O)CN(S(=O)(=O)c2ccc(Cl)cc2)C[C@H](Cc2ccccc2)NC(=O)CN(S(=O)(=O)CCN)C1)S(=O)(=O)CC(C)C)S(=O)(=O)CCN)S(C)(=O)=O — IC50 (CREB; reporter gene, inhibitor, CRE Renilla luciferase; HEK-293T; 30 min, added: forskolin 10 µM for 5 h): 80.3 ± 13.2 µM
N[C@@H](CCC(=O)O)C(=O)N[C@@H](CCC(=O)O)C(=O)O — IC50 (PepTSt Streptococcus thermophilus wild type; peptide uptake, competitor, proteoliposome uptake; added: [3H]di-alanine): 560 µM

Excerpt of the above:
CC(C)C[C@@H](/C=C/S(C)(=O)=O)NC(=O)[C@H](CC(C)C)NC(=O)[C@@H](NC(=O)N[C@H](C(=O)OC(C)(C)C)C(C)C)C(C)C — IC50 (rabbit 26S proteasome beta2; trypsin-like activity; 30 min, 37 °C, added: Ac-RLR-AMC): > 30 µM
CC(C)=CCN=C(N)NCCC[C@@H](NC(=O)CCCc1ccc(O)cc1)C(=O)N[C@@H](Cc1ccccc1)C(O)CC(=O)N[C@@H](Cc1ccc(O)cc1)C(=O)O (stereo in doubt) — IC50 (calpain; enzyme activity): > 100 µM
O=Cc1c(O)ccc2ccccc12 — log2 fold change (HUVEC; RNA sequencing, item: TMIE; 75 µM, 24 h; baseline: DMSO): 3.59
